Results pooled from the literature.
A part holds a random share of what one study measured.

Sample 1
Cell line: HEK-293T
Read-out: pseudovirus infection
Technique: FDA-approved drug library screen
Organism: VSV pseudotyped with SARS-CoV-2 spike
Concentration: 10 µM
Time: 16 h
Relative to: vehicle-treated
SMILES | GFP-positive cells
Cc1cc(-c2ccc(/N=N/c3ccc4c(S(=O)(=O)O)cc(S(=O)(=O)O)c(N)c4c3O)c(C)c2)ccc1/N=N/c1ccc2c(S(=O)(=O)O)cc(S(=O)(=O)O)c(N)c2c1O | 95.9%
O=c1[nH]c2ccccc2n1C1CCN(CCCC(c2ccc(F)cc2)c2ccc(F)cc2)CC1 | 33.7%
CC(C)C(=O)Oc1ccc(CO)cc1[C@H](CCN(C(C)C)C(C)C)c1ccccc1 | 45.6%
NS(=O)(=O)Cc1noc2ccccc12 | 107%
CCC(=O)OCC(=O)[C@@]1(OC(=O)CC)[C@@H](C)C[C@H]2[C@@H]3CCC4=CC(=O)C=C[C@]4(C)[C@@]3(F)[C@@H](O)C[C@@]21C | 90.5%

Sample 2
Target: Replicase polyprotein 1ab, nsp13 helicase (rep, Severe acute respiratory syndrome coronavirus 2, UniProt P0DTD1)
Action: inhibitor
Concentration: 20 µM
SMILES | inhibition
c1cc2c(cc1[C@H]1OC[C@H]3[C@@H]1CO[C@@H]3c1ccc3c(c1)OCO3)OCO2 | -2.15%
OC[C@H]1O[C@@H](O[C@@H]2[C@H](O)[C@@H](O)[C@H](O[C@H]3[C@H](O)[C@@H](O)C(O)O[C@@H]3CO)O[C@@H]2CO)[C@H](O)[C@@H](O)[C@H]1O (stereo partly drawn) | 4.84%
Cc1cccc(C)c1NC(=O)CN1CCN(CCCC(c2ccc(F)cc2)c2ccc(F)cc2)CC1 | 4.99%
Cc1c(C2CCN(CCc3ccccc3)CC2)noc1-c1ccc(Cl)cc1 | -0.1%
CC(=C(CCO)SSCC1CCCO1)N(C=O)Cc1cnc(C)nc1N (stereo in doubt) | 1.91%
CC1(C)S[C@@H]2[C@H](NC(=O)[C@H](NC(=O)N3CCN(S(C)(=O)=O)C3=O)c3ccccc3)C(=O)N2[C@H]1C(=O)O | 6.52%
CC(C)(C)NC(=O)[C@H]1CC[C@H]2[C@@H]3CC[C@H]4NC(=O)C=C[C@]4(C)[C@H]3CC[C@]12C | 10.9%
c1ccc2nc(C3=NCCN3)ccc2c1 | 8.57%
CC=C1C(=O)C[C@H]2[C@@H]3CCC4=CC(=O)CC[C@]4(C)[C@H]3CC[C@]12C | 0.18%
CCC[S+]([O-])c1ccc2[nH]c(NC(=O)OC)nc2c1 (stereo not drawn) | 3.51%
COc1cc2c(cc1OC)C(c1ccc(N)cc1)=NNC(=O)C2 | 6.79%
CC[C@@]1(O)C(=O)OCc2c1cc1n(c2=O)Cc2cc3c(CN(C)C)c(O)ccc3nc2-1 | 5.31%
CN1c2cc3c(cc2N=C(c2ccc(C(=O)O)cc2)c2ccccc21)C(C)(C)CCC3(C)C | 2.86%
CC(C)Oc1ccc2c(=O)c(-c3ccccc3)coc2c1 | 6.12%
C[C@@H](O[C@H]1OCCN(Cc2n[nH]c(=O)[nH]2)[C@H]1c1ccc(F)cc1)c1cc(C(F)(F)F)cc(C(F)(F)F)c1 | 1.21%

Sample 3
Target: Phosphate system positive regulatory protein PHO4, full length, GST-tagged (PHO4, Saccharomyces cerevisiae, UniProt P07270, residues 1-312)
Technique: competition protein-binding microarray
Molecule type: double-stranded DNA, one strand shown
Matrix: in vitro
Concentration: 2 µM
Setting: whole 60-bp probe, lowest competitor level
Added: Cbf1 competitor, 0.05 µM
Direction: higher = stronger binding
Construct (chain): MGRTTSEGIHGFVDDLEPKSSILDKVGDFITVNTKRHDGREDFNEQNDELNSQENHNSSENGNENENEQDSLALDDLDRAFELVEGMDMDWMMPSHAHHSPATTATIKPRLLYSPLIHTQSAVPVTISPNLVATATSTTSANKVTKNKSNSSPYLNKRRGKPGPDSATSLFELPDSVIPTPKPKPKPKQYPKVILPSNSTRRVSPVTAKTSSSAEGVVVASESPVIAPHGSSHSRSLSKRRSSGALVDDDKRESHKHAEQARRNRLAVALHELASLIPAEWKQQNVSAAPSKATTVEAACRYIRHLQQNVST
Oligonucleotide | fluorescence intensity
CCGTCGAAACAATGGCAGGTGAAGCAGTTTCGGAATGTCTTGATTCGCTTGACGCTGCTG | 3810 a.u.
CTAACGAAGGTTTGGGTGGTGGGTGACAAGCCAAGTGTCTTGATTCGCTTGACGCTGCTG | 4280 a.u.
CTAACGAAGGTTTGCACAGTGGGTGACAAGCCAAGTGTCTTGATTCGCTTGACGCTGCTG | 3990 a.u.
AGTTACGGTTGCCATCACGTGTCGGTAGGATAAAGTGTCTTGATTCGCTTGACGCTGCTG | 19700 a.u.

Sample 4
Organism: SARS-CoV-2
Read-out: cytopathic effect
Cells: Vero E6
Concentration: 10 µM
Structure (SMILES) | inhibition [%]
COc1ccc2[nH]c([S+]([O-])Cc3ncc(C)c(OC)c3C)nc2n1 (stereo not drawn) | -5.5
O=C(O)C1[O][Sb]2[O]C(=O)C([O]2)C(C(=O)O)[O][Sb]2[O]C(=O)C1[O]2 (stereo not drawn) | -2.1
S=C=Nc1cccc(NC(=S)NCCCCNC(=S)Nc2cccc(N=C=S)c2)c1 | -20.3
CNC[C@H](O)c1ccc(O)c(O)c1 | 10.8
CC[C@H](CO)Nc1nc(NCc2ccc(-c3ccccn3)cc2)c2ncn(C(C)C)c2n1 | -6.3
O=C(O)/C(S)=C/c1ccc(I)cc1 | 12.3

For quick reference, copied from above (sample 3):
Oligonucleotide | fluorescence intensity
CTAACGAAGGTTTGGGTGGTGGGTGACAAGCCAAGTGTCTTGATTCGCTTGACGCTGCTG | 4280 a.u.
CTAACGAAGGTTTGCACAGTGGGTGACAAGCCAAGTGTCTTGATTCGCTTGACGCTGCTG | 3990 a.u.
CCGTCGAAACAATGGCAGGTGAAGCAGTTTCGGAATGTCTTGATTCGCTTGACGCTGCTG | 3810 a.u.
AGTTACGGTTGCCATCACGTGTCGGTAGGATAAAGTGTCTTGATTCGCTTGACGCTGCTG | 19700 a.u.
